Literature values, collected from citations in different studies.
Each line is one published result; not all experiments were run side by side. Numbers after ± are the reported error. Values after ≈ are worked out from the molar mass of the structure shown.
lasR: Transcriptional activator protein LasR (lasR, Pseudomonas aeruginosa, UniProt P25084)
UniProt P25084, sequence (whole entry, looked up): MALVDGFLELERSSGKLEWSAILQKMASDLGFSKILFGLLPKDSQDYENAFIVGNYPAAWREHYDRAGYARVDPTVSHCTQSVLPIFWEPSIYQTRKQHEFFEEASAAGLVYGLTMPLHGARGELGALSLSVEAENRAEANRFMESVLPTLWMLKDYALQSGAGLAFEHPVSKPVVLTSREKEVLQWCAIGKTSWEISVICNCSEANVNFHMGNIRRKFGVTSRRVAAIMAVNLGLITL
UniProt P0A7E5, sequence (whole entry, looked up): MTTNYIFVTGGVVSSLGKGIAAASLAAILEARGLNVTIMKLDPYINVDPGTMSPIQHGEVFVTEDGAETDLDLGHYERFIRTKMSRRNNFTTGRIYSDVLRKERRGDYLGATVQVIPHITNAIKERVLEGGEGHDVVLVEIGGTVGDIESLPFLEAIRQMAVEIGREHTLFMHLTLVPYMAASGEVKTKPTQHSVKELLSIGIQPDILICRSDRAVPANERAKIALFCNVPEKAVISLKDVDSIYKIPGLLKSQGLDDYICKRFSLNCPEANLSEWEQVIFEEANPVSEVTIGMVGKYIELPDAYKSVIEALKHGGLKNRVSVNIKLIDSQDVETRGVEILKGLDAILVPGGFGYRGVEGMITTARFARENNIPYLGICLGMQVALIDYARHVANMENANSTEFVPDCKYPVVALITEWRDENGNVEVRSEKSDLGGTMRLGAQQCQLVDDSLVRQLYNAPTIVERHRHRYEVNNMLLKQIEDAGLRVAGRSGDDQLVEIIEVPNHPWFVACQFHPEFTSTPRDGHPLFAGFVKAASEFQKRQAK
UniProt P28223, sequence (whole entry, looked up): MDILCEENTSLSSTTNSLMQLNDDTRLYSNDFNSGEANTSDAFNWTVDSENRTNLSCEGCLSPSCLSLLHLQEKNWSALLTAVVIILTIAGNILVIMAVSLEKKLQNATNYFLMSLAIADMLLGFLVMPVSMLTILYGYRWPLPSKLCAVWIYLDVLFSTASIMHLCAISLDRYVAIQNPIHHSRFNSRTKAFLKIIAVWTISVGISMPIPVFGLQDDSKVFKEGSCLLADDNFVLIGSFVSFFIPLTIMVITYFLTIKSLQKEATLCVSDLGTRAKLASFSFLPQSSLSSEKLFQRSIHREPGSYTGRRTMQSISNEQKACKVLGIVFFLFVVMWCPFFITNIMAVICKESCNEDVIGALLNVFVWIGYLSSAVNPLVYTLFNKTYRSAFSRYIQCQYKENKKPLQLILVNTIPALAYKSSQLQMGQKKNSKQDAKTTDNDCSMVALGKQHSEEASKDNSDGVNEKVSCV
UniProt P15144, sequence (whole entry, looked up): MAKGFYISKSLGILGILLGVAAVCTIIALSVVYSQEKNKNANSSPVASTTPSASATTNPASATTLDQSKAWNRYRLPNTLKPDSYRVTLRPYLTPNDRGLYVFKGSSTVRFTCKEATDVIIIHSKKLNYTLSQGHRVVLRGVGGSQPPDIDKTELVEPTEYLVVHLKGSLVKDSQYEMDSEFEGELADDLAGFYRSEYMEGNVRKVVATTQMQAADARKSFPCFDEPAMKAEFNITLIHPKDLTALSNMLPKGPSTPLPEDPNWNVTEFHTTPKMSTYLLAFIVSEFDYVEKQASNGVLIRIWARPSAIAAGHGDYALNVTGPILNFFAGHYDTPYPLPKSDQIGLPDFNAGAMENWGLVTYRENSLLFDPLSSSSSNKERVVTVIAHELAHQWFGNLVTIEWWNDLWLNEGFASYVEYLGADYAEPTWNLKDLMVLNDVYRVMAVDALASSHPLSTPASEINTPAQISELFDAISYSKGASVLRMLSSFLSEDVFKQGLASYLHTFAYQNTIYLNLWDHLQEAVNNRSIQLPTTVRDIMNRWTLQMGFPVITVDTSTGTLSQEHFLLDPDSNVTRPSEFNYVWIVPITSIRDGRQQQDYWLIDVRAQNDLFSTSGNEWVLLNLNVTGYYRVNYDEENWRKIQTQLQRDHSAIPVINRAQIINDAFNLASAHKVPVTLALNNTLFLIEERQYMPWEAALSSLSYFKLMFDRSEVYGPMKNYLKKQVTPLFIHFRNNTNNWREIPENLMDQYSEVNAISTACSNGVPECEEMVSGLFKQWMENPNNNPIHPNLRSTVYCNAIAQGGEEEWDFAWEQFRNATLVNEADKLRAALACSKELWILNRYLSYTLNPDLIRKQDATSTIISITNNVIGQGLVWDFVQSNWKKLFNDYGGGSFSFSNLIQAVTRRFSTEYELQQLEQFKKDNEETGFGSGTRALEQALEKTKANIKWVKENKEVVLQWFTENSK
UniProt P30547, sequence (whole entry, looked up): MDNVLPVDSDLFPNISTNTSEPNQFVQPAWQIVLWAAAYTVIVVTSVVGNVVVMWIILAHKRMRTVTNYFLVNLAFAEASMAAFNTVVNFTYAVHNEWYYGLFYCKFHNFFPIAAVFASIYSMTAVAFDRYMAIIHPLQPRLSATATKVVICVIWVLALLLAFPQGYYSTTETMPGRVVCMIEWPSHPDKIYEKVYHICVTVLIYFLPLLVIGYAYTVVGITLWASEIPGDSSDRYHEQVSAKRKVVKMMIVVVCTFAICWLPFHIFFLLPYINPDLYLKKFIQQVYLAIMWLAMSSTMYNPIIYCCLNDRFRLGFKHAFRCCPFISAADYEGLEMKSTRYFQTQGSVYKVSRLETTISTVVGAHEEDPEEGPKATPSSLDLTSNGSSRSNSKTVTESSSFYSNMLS
UniProt P35372, sequence (whole entry, looked up): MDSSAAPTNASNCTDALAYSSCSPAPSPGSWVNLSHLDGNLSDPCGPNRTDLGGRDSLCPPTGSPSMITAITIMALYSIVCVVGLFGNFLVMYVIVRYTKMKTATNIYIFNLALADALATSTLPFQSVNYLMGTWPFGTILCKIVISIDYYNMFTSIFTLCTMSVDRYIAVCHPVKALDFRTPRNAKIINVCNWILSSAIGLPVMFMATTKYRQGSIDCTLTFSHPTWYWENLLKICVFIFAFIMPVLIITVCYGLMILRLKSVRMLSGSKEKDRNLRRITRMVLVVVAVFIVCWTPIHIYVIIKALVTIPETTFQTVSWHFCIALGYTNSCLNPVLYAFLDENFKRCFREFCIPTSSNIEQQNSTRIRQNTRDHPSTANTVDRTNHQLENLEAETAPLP

Compound	target or system	test	test system	conditions	how to read	measurement	value
CC[C@H](C)[C@H](NC(=O)[C@@H]1CCCN1C(=O)[C@H](CS)NC(=O)[C@H](Cc1ccc(O)cc1)NC(=O)[C@@H]1CCCN1C(=O)[C@H](CC(C)C)NC(=O)[C@H](CCCNC(=N)N)NC(=O)[C@H](CO)NC(=O)[C@H](Cc1ccc(O)cc1)NC(=O)[C@H](Cc1ccccc1)NC(=O)[C@H](CC(N)=O)NC(=O)[C@H](CCCNC(=N)N)NC(=O)[C@H](CS)NC(=O)[C@H](Cc1ccc(O)cc1)NC(=O)[C@H](CO)NC(=O)CNC(=O)[C@H](CO)NC(=O)[C@@H]1CCCN1C(=O)[C@H](CC(C)C)NC(=O)[C@H](Cc1ccc(O)cc1)NC(=O)[C@H](C)NC(=O)[C@@H]1CCCN1C(=O)[C@H](CCCNC(=N)N)NC(=O)CN)C(=O)N[C@@H](CCCNC(=N)N)C(=O)NCC(=O)NCC(=O)N[C@@H](Cc1c[nH]cn1)C(=O)N[C@@H](CS)C(=O)N[C@@H](CCCNC(=N)N)C(=O)O	Staphylococcus aureus	–	–	–	–	MIC	8 µM (≈ 27.6 µg/mL)
CCCCCCCCCC(=O)CC(=O)Nc1ccccc1	lasR	reporter gene, antagonist, rsaL-yfp reporter	–	10 µM	–	inhibition	30%
NC(=O)c1cccc(NC(=O)C(NC(=O)c2ccc(Oc3ccccc3)cc2)c2ccc(OCc3ccccc3)cc2)c1 (centres unmarked)	Genome polyprotein, NS2B-NS3 protease (dengue virus type 2, UniProt P29990)	protease activity, inhibitor	–	50 µM, pH 7.5, with: AMC substrate	–	inhibition	83%
CCC(=O)OC1C(=O)C2(C)C(O)CC3OCC3(OC(C)=O)C2C(OC(=O)c2cccc(OC(F)(F)F)c2)C2(O)CC(OC(=O)C(O)C(C=C(C)C)NC(=O)OC(C)(C)C)C(C)=C1C2(C)C (centres unmarked)	CFPAC-1	cytotoxicity	–	–	–	IC50	0.75 nM
CCCCCCC(=O)N[C@H]1CCOC1=O	lasR	lasI-lacZ reporter, inhibitor	–	5 µM	–	inhibition	15%
CC[C@@H]1CN2CCc3c([nH]c4cccc(O)c34)[C@@H]2C[C@@H]1/C(=C\OC)C(=O)OC	Mu-type opioid receptor (OPRM1, Homo sapiens, UniProt P35372)	agonist	–	–	reference: DAMGO	Emax	29%
CN(C)c1ncnc2c1ncn2[C@@H]1O[C@H](CO)[C@@H](NC(=O)[C@H](N)CSC(c2ccccc2)c2ccccc2)[C@H]1O	Aminopeptidase N (ANPEP, Homo sapiens, UniProt P15144)	enzyme activity	–	10 µM	–	inhibition	58.7%
CC(C)[C@H](NC(=O)CNC(=O)CNC(=O)[C@H](Cc1ccc(O)cc1)NC(=O)[C@H](CS)NC(=O)[C@@H](NC(=O)[C@H](Cc1c[nH]c2ccccc12)NC(=O)[C@H](Cc1ccccc1)NC(=O)[C@H](CS)NC(=O)[C@H](Cc1c[nH]c2ccccc12)NC(=O)[C@@H](N)CCCNC(=N)N)C(C)C)C(=O)N[C@@H](CS)C(=O)N[C@@H](Cc1ccc(O)cc1)C(=O)N[C@@H](CCCNC(=N)N)C(=O)N[C@@H](CCCNC(=N)N)C(=O)N[C@@H](CS)C(=O)N[C@@H](CCCNC(=N)N)C(=O)O	Staphylococcus aureus	–	–	–	–	MIC	> 128 µM
Nc1ccn(C2OC(COP(=O)(O)OP(=O)(O)OP(=O)(O)O)C(O)C2(F)F)c(=O)n1 (centres unmarked)	pyrG (Escherichia coli, UniProt P0A7E5)	–	–	–	reference: CTP	apparent affinity	~80 fold
CSCC[C@H](NC(=O)[C@H](Cc1ccccc1)NC(=O)CNC(=O)[C@@H](C)NC(=O)[C@@H](N)Cc1ccc(O)cc1)C(=O)N1CCC[C@H]1C(=O)N[C@@H](CC(C)C)C(=O)N[C@@H](Cc1c[nH]c2ccccc12)C(=O)NCc1cc(C(F)(F)F)cc(C(F)(F)F)c1	Substance-P receptor (Cavia porcellus, UniProt P30547)	antagonist	guinea pig ileum	with: naloxone 1 µM	–	Ke	10 ± 2 nM
CNC(=O)[C@@]12C[C@@H]1[C@@H](n1cnc3c(NC(C4CC4)C4CC4)nc(Cl)nc31)[C@H](O)[C@@H]2O	5-hydroxytryptamine receptor 2A (HTR2A, Homo sapiens, UniProt P28223)	binding	–	10 µM, with: [3H]ketanserin	–	inhibition	9%
COc1ccc2c(c1O)CCCC=C2c1cc(OC)c(OC)c(OC)c1	tubulin	colchicine binding	–	5 µM	–	inhibition	95 ± 0.5%
CCCCCCCCCC(=O)NC1CCCC1	lasR	reporter gene, antagonist, lasI-lacZ reporter	PAO1	250 µM	–	inhibition	90%
CC(=O)OC12COC1CC(O)C1(C)C(=O)C(OC(=O)N(C)C)C3=C(C)C(OC(=O)C(O)C(C=C(C)C)NC(=O)OC(C)(C)C)CC(O)(C(OC(=O)c4cccc(OC(F)F)c4)C21)C3(C)C (centres unmarked)	HCT-116	cytotoxicity	–	–	–	IC50	1.44 nM

For quick reference, copied from above:
Compound	target or system	test	test system	conditions	how to read	measurement	value
COc1ccc2c(c1O)CCCC=C2c1cc(OC)c(OC)c(OC)c1	tubulin	colchicine binding	–	5 µM	–	inhibition	95 ± 0.5%
